# Results from different studies.
# Compare with care: the assays were run in different laboratories. ± marks the error that the study gave.
# RMS3: RMS3 (Lathyrus oleraceus, UniProt A0A109QYD3)
# UniProt A0A109QYD3, sequence (whole entry, looked up): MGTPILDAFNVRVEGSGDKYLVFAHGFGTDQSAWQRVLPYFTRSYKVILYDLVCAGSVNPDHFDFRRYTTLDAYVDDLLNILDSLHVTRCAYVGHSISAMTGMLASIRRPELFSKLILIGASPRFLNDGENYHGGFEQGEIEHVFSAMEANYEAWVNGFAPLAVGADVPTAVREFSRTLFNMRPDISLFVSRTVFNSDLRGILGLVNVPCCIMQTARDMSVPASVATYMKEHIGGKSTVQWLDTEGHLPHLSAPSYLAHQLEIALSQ
# UniProt C0LGQ5, sequence (whole entry, looked up): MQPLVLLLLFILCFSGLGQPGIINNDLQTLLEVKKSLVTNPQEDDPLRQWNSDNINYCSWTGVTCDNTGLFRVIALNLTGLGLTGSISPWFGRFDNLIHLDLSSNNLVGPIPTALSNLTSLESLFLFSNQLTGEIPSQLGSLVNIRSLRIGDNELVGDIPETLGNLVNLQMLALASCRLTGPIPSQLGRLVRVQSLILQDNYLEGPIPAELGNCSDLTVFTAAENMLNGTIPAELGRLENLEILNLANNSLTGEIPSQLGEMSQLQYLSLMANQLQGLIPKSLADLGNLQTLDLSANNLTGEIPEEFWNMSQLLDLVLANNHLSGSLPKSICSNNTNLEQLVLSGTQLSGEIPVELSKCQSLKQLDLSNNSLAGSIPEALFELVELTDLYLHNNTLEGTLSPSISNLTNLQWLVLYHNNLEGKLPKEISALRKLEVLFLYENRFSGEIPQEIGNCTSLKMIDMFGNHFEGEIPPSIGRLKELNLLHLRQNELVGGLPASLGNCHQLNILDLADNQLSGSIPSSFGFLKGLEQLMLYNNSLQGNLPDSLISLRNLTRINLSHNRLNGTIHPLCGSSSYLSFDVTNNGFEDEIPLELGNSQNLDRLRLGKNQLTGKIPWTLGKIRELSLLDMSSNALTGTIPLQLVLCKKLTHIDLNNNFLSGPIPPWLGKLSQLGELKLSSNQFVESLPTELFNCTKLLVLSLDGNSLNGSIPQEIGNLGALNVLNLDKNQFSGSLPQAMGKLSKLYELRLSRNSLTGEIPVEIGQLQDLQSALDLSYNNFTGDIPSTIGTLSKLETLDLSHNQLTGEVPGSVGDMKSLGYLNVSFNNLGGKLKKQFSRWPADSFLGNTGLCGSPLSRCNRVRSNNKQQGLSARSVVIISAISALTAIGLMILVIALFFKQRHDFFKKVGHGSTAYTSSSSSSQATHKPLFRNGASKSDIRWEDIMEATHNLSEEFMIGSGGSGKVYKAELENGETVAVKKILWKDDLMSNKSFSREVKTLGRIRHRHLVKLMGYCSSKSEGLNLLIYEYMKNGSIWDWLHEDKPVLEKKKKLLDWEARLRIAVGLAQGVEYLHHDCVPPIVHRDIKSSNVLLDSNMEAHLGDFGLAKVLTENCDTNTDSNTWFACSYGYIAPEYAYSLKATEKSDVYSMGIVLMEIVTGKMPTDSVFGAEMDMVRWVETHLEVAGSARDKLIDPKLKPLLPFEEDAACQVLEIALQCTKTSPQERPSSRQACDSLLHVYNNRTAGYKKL
# UniProt P22607, sequence (whole entry, looked up): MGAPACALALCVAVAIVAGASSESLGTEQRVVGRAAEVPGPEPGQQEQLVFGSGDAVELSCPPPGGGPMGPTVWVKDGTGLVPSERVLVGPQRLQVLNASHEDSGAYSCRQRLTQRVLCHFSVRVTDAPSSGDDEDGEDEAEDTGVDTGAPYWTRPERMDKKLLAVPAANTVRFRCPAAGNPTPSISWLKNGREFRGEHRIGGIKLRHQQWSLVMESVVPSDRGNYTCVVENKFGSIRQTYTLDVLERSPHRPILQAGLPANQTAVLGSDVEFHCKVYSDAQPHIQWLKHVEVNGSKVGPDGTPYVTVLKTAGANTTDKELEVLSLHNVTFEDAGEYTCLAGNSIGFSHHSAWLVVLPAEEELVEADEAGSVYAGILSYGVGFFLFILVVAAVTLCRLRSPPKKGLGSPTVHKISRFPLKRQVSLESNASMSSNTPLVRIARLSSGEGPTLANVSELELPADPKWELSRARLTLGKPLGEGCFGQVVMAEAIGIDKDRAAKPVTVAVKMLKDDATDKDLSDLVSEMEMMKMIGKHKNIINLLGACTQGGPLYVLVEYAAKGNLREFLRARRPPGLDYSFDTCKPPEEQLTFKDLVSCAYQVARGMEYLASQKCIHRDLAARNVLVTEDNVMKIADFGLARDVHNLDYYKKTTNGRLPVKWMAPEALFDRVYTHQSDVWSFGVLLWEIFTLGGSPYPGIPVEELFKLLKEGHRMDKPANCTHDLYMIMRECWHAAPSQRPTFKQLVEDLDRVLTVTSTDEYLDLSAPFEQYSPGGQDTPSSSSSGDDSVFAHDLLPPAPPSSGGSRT
# UniProt P20813, sequence (whole entry, looked up): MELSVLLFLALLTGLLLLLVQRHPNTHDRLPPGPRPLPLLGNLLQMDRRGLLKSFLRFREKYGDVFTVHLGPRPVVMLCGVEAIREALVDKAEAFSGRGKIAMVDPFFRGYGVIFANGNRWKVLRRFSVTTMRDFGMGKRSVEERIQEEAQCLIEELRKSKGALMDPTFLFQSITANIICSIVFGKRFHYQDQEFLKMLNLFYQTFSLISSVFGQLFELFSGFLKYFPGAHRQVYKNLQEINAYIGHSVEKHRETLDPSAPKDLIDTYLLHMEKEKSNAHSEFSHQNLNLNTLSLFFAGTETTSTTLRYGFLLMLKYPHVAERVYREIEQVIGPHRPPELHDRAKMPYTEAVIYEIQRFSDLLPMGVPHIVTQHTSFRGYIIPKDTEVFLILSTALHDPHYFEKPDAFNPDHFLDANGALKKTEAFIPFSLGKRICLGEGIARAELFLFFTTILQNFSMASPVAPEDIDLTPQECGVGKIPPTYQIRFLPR
# UniProt P31224, sequence (whole entry, looked up): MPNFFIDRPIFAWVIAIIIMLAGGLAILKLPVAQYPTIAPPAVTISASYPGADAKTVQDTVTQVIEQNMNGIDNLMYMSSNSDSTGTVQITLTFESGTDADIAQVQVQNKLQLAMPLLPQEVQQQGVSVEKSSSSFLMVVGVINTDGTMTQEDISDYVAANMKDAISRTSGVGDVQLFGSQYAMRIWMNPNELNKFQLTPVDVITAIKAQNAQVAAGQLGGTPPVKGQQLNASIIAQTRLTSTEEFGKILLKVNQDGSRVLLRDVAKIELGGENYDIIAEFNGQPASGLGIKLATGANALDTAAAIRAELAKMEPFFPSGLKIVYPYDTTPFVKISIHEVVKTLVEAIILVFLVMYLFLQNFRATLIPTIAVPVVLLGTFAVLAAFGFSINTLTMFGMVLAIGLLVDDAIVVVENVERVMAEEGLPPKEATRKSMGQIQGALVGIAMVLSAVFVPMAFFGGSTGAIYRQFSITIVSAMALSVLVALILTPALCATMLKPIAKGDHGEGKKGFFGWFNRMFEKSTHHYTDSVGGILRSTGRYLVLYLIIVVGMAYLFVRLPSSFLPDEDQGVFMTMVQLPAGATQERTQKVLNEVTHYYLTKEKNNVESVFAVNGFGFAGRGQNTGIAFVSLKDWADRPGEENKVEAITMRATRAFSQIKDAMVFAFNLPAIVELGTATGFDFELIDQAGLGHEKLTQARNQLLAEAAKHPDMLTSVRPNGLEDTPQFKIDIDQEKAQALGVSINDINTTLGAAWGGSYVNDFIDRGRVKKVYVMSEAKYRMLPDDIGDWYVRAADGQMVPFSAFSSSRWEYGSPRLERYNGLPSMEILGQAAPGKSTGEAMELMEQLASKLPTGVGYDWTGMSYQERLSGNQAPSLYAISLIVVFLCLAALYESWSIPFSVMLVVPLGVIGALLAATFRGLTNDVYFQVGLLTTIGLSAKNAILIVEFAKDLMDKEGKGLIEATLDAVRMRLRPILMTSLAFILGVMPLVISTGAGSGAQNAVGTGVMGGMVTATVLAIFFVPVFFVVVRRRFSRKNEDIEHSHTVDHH
# UniProt Q06830, sequence (whole entry, looked up): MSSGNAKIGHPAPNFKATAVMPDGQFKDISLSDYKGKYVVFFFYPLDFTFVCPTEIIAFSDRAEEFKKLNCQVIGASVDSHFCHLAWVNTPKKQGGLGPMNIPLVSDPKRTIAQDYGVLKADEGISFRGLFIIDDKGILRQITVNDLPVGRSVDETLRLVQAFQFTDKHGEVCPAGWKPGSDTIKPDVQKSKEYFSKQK
# UniProt Q02790, sequence (whole entry, looked up): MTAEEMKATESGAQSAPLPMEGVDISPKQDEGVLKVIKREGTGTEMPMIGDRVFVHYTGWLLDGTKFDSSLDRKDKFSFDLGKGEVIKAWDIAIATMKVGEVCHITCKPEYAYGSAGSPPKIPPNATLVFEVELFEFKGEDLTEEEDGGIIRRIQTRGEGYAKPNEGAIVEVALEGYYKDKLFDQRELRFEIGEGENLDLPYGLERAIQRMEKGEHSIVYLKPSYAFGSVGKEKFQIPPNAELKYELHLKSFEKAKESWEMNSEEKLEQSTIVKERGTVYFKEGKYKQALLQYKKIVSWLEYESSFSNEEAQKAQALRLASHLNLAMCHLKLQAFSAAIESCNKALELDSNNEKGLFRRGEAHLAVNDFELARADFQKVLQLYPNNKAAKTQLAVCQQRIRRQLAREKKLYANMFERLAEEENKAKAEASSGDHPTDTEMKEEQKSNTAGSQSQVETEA
# UniProt P38169, sequence (1-394, unmodified, looked up): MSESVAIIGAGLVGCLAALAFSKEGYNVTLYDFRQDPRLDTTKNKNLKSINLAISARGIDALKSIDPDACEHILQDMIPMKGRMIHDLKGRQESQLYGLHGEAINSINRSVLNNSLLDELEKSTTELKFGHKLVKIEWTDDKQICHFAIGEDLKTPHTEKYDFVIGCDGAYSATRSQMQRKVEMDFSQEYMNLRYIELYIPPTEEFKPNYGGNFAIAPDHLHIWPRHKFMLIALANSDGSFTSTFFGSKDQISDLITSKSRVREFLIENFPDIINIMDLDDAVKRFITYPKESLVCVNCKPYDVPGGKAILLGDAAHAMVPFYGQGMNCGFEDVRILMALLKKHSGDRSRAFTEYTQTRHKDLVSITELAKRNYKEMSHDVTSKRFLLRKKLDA
SMILES,target or system,test,system,conditions,how to read,endpoint,result
CCCCCCCCC(=O)NCc1ccc(O)c(OC)c1,mAb 6-AT6,"antibody binding, indirect competitive ELISA",,together with: coating antigen 4-OVA,,IC50,> 4 µg/mL
N=C(N)NCCC[C@@H]1NC(=O)[C@H](CCCCNC(=O)CNC(=O)CNC(=O)CNC(=O)CC[C@H](NC(=O)CCOCCOCCOCCOCCNC(=O)CC[C@H](NC(=O)CN2CCN(CC(=O)O)CCN(CC(=O)O)CCN(CC(=O)O)CC2)C(=O)NCCOCCOCCOCCOCCC(=O)N[C@@H](CCC(=O)NCC(=O)NCC(=O)NCC(=O)NCCCC[C@@H]2NC(=O)[C@@H](Cc3ccccc3)NC(=O)[C@H](CC(=O)O)NC(=O)CNC(=O)[C@H](CCCNC(=N)N)NC2=O)C(=O)NCC(=O)NCC(=O)NCC(=O)NCCCC[C@@H]2NC(=O)[C@@H](Cc3ccccc3)NC(=O)[C@H](CC(=O)O)NC(=O)CNC(=O)[C@H](CCCNC(=N)N)NC2=O)C(=O)NCC(=O)NCC(=O)NCC(=O)NCCCC[C@@H]2NC(=O)[C@@H](Cc3ccccc3)NC(=O)[C@H](CC(=O)O)NC(=O)CNC(=O)[C@H](CCCNC(=N)N)NC2=O)NC(=O)[C@@H](Cc2ccccc2)NC(=O)[C@H](CC(=O)O)NC(=O)CNC1=O [indium-111 labelled],,,"athymic nude mice, female, U-87 MG glioma xenograft, tumour and blood","intravenous, 72 h",relative to: tumour over blood,tumour to tissue ratio,94 ± 22.3
CCN(Cc1ccccc1)C(=O)CCc1nc(CN2CCN(C(=O)Cc3ccc(OC)c(OC)c3)CC2)no1,"Scn10a (Rattus norvegicus, UniProt Q62968)","sodium current, whole-cell patch clamp",rat DRG neurons,10 µM,"relative to: control, towards hyperpolarisation",activation curve shift,3.53 mV
CN[C@](C)(C[18F])C(=O)O,MDA-MB-468 tumour model,,"host not given, liver","30 min, tumour-bearing",,tracer uptake,4.2 %ID/g
CC[C@H](C)[C@H](NC(=O)CN)C(=O)NCC(=O)N[C@@H](CC(=O)O)C(=O)N1CCC[C@H]1C(=O)N[C@H](C(=O)N[C@H](C(=O)N[C@H]1CSSC[C@@H]2NC(=O)[C@H](CCCCN)NC(=O)[C@H]([C@@H](C)O)NC(=O)CNC(=O)[C@@H]3CCCN3C(=O)[C@H](CC(C)C)NC(=O)CNC(=O)[C@@H]3CSSC[C@H](NC(=O)[C@H]([C@@H](C)CC)NC(=O)[C@H](C)NC(=O)CNC(=O)[C@H](CO)NC(=O)[C@H](CCCCN)NC(=O)[C@H](CC(C)C)NC1=O)C(=O)N[C@@H](Cc1c[nH]cn1)C(=O)N1CCC[C@H]1C(=O)N[C@@H](C(C)C)C(=O)N[C@@H](Cc1ccccc1)C(=O)N[C@@H](CSSC[C@@H](C(=O)N[C@@H](CCCCN)C(=O)N[C@@H](CCCCN)C(=O)N1CCC[C@H]1C(=O)O)NC2=O)C(=O)N1CCC[C@H]1C(=O)N[C@@H](CCCNC(=N)N)C(=O)N[C@@H](CCCNC(=N)N)C(=O)N[C@@H](Cc1ccc(O)cc1)C(=O)N[C@@H](CCCCN)C(=O)N[C@@H](CCC(N)=O)C(=O)N[C@@H]([C@@H](C)CC)C(=O)NCC(=O)N[C@@H]([C@@H](C)O)C(=O)N3)[C@@H](C)O)C(C)C,"sapA (Haemophilus influenzae, UniProt Q4QL73)","binding, SPR",,"pH 7.5, 25 °C, together with: immobilised full-length defensin",,Kd,0.0175 µM
Oc1ccc(O)c2ccccc12,"Serine/threonine-protein kinase PAK 1, PBD (PAK1, Homo sapiens, UniProt Q13153)",SPR,,25 °C,,Kd,< 7 µM
COc1nc(CC=C(C)CC=CC(C)=CC(C)C(OC2OC(CO)C(O)C(O)C2O)C(C)=CCO)c(C)c(O)c1OC (centres unmarked),"Peroxiredoxin-1 (PRDX1, Homo sapiens, UniProt Q06830)","binding, SPR",,,,Kd,0.426 µM
CCCC[C@H](NC(=O)CNC(=O)CNC(=O)c1ccc(NN)nc1)C(=O)N[C@H]1CC(=O)NCCCC[C@@H](C(N)=O)NC(=O)[C@H](Cc2c[nH]c3ccccc23)NC(=O)[C@H](CCCNC(=N)N)NC(=O)[C@@H](Cc2ccccc2)NC(=O)[C@H](Cc2c[nH]cn2)NC1=O [technetium-99m labelled],,,"C57 mouse, B16/F1 melanoma, intestines","intravenous, 4 h",,uptake,1.88 ± 1.06 %ID
CCCCCc1cc(O)c2c(c1)OC(C)(C)C1CCC(CO)=CC21 (centres unmarked),"Cytochrome P450 2B6 (CYP2B6, Homo sapiens, UniProt P20813)","enzyme activity, inhibitor",microsomes from HEK cells,"30 min, preincubation without NADPH",,IC50,7.3 ± 1 µM
N=C(N)NCCC[C@@H]1NC(=O)[C@H](CCCCNC(=O)CCOCCOCCOCCOCCNC(=O)CN2CCN(CC(=O)O)CCN(CC(=O)O)CCN(CC(=O)O)CC2)NC(=O)[C@@H](Cc2ccccc2)NC(=O)[C@H](CC(=O)O)NC(=O)CNC1=O [indium-111 labelled],,,"athymic nude mice, female, U-87 MG glioma xenograft, tumour and kidney","intravenous, 1 h",relative to: tumour over kidney,tumour to tissue ratio,0.65 ± 0.1
CSCC[C@H](NC(C)=O)C(=O)N[C@H](C(=O)N[C@@H](Cc1ccccc1)C(=O)N[C@@H](CC(C)C)C(=O)N[C@@H](CC(=O)O)C(=O)N[C@H](C(=O)N[C@H]1CSCc2cccc(c2)CSC[C@@H](C(=O)N[C@@H](Cc2ccc(O)cc2)C(=O)N[C@H](C(=O)N[C@@H](CO)C(=O)N[C@@H](Cc2ccccc2)C(=O)N[C@@H](CCSC)C(=O)NCC(=O)N[C@@H](CO)C(=O)NCC(=O)N[C@@H](CO)C(=O)NCC(=O)N[C@@H](CO)C(=O)N[C@@H](CC(=O)O)C(=O)N[C@@H](Cc2ccc(O)cc2)C(=O)N[C@@H](CCCCN)C(=O)N[C@@H](CC(=O)O)C(=O)N[C@@H](CC(=O)O)C(=O)N[C@@H](CC(=O)O)C(=O)N[C@@H](CC(=O)O)C(=O)N[C@@H](CCCCN)C(N)=O)C(C)C)NC(=O)[C@H](CCCNC(=N)N)NC(=O)[C@H]([C@@H](C)O)NC1=O)[C@@H](C)O)[C@@H](C)O,"FGFR3 (Homo sapiens, UniProt P22607)","binding, BLI",,,,Kd,0.34 µM
C[C@H](N)C(=O)N[C@@H](CCCNC(=N)N)C(=O)N[C@H](C(=O)N[C@@H](CCCCN)C(=O)N[C@@H](CCC(N)=O)C(=O)N[C@H](C(=O)N[C@@H](C)C(=O)N[C@@H](CCCNC(=N)N)C(=O)N[C@@H](CCCCN)C(=O)N[C@@H](CO)C(=O)N[C@H](C(=O)NCC(=O)NCC(=O)N[C@@H](CCCCN)C(=O)N[C@@H](C)C(=O)O)[C@@H](C)O)[C@@H](C)O)[C@@H](C)OP(=O)(O)O,"DNMT3A (Homo sapiens, UniProt Q9Y6K1)","binding, ITC",,,,Kd,59.9 µM
CC[C@H](C)[C@H](NC(=O)[C@H](CC(C)C)NC(=O)[C@H](CCCCN)NC(=O)[C@H](Cc1ccccc1)NC(=O)[C@@H]1CCCN1C(=O)[C@@H]1CCCN1C(=O)[C@H](CCCNC(=N)N)NC(=O)[C@@H](NC(=O)[C@H](CC(C)C)NC(=O)[C@H](CCCCN)NC(=O)[C@@H]1CCCN1C(=O)[C@H](CCCCN)NC(=O)[C@@H]1CCCN1C(=O)[C@H](CO)NC(=O)[C@H](CO)NC(=O)[C@H](Cc1c[nH]cn1)NC(=O)CNC(=O)[C@H](Cc1ccc(OS(=O)(=O)O)cc1)NC(=O)[C@@H](N)CC(=O)O)C(C)C)C(=O)N1CCC[C@H]1C(=O)N[C@@H](CC(N)=O)C(=O)O,"LRR receptor-like serine/threonine-protein kinase GSO1, ectodomain (GSO1, Arabidopsis thaliana, UniProt C0LGQ5)",grating-coupled interferometry,ectodomain,"pH 5.0, 25 °C",,Kd,~0.001 µM
CC(C)C[C@@H]1NC(=O)[C@H](Cc2ccc(O)cc2)NC(=O)[C@H](CCCCN)NC(=O)[C@H](CCCNC(=N)N)NC(=O)[C@@H](Cc2ccc(O)cc2)NC(=O)CSC[C@@H](C(=O)NCC(N)=O)NC(=O)[C@H](Cc2c[nH]c3ccccc23)NC(=O)[C@@H]2CCCN2C(=O)[C@H](Cc2ccccc2)NC(=O)[C@H](CCCNC(=N)N)NC(=O)[C@H](CCC(=O)O)NC(=O)[C@H](Cc2ccc(O)cc2)NC1=O,"Protein Wnt-3a, with afamin-Fc (Mus musculus, UniProt P27467)","binding, SPR steady-state",,Fc-captured Wnt3a-afamin-Fc,,Kd,0.0395 µM
O=C(O)C1CC1C(=O)c1ccc(Cl)c(Cl)c1 (centres unmarked),"Kynurenine 3-monooxygenase, residues 1-394 (Saccharomyces cerevisiae, UniProt P38169)","binding, flavin fluorescence",,25 °C,,Kd,0.14 ± 0.01 µM
CC(=O)NC1C(OC2C(O)C(CO)OC(O)C2OC2OC(C)C(O)C(O)C2O)OC(CO)C(O)C1O (centres unmarked),"Intermedilysin (Streptococcus intermedius, UniProt Q9LCB8)",binding,,,,Kd,9.9 µM
Cc1cc(N)c2cc(NC(=O)c3ccc4c(-c5cccc(N)c5)cccc4c3)ccc2n1,"acrB (Escherichia coli, UniProt P31224)","binding, SPR",,,,Kd,20 µM
CC1=C(C)[C@@H](Oc2c(F)cc3c(C)cc(=O)oc3c2F)OC1=O,RMS3,"binding, fluorescence",,,,Kd,581 µM
C=Cc1cc(OC)c2c(c1)c(=O)oc1c2cc(OC)c2c(O)ccc([C@@H]3O[C@H](C)[C@H](O)[C@@](C)(O)[C@H]3O)c21,"Bifunctional protein GlmU (Staphylococcus aureus, UniProt Q5HIH6, G277S)","binding, MST",,,,Kd,0.0481 µM
C#CC[C@H](NC(=O)CNC(=O)[C@H](CO)NC(=O)[C@H](CCCCN)NC(=O)[C@H](C)N(C)C(=O)[C@H](C)NC(=O)[C@@H](NC(=O)[C@@H](NC(=O)[C@H](CCCNC(=N)N)NC(=O)[C@H](Cc1c[nH]cn1)NC(=O)[C@@H]1CCCN1C(=O)[C@H](Cc1ccccc1)NC(=O)[C@@H](N)CCSC)C(C)C)[C@@H](C)O)C(=O)O,"Microtubule-associated protein 1 light chain 3 alpha (Homo sapiens, UniProt Q9H492)",fluorescence polarization,,,,Kd,0.691 ± 0.252 µM
CC[C@H](C)[C@H](NC(=O)[C@H](CC(N)=O)NC(=O)[C@@H](NC(=O)[C@H](Cc1ccccc1)NC(=O)[C@@H](NC(=O)[C@H](CO)NC(=O)[C@@H](NC(=O)[C@H](C)NC(=O)[C@H](CCC(=O)O)NC(=O)[C@H](CCCCN)NC(=O)[C@H](Cc1ccc(O)cc1)NC(=O)[C@H](CC(C)C)NC(=O)[C@@H]1CCCN1C(=O)[C@H](CC(N)=O)NC(=O)[C@H](CC(N)=O)NC(=O)[C@H](C)NC(=O)[C@@H](NC(=O)[C@H](CC(=O)O)NC(=O)[C@H](Cc1c[nH]c2ccccc12)NC(=O)[C@@H](N)CCCCN)[C@@H](C)O)[C@@H](C)O)[C@@H](C)O)[C@@H](C)O)C(=O)N[C@H](C(=O)N[C@@H](Cc1ccc(O)cc1)C(=O)N[C@@H](CCCNC(=N)N)C(=O)NCC(=O)N[C@H](C(=O)O)[C@@H](C)O)[C@@H](C)O,"Myomesin-1, IgC2 domain 4 (Myom1, Mus musculus, UniProt Q62234)","binding, ITC",,"pH 6.8, 25 °C, 50 mM NaCl, together with: Sk4 0.175 mM",,Kd,10.7 ± 9.9 µM
CC[C@H](C)[C@H](NC(=O)[C@H](CCCNC(=N)N)NC(=O)[C@H](CO)NC(=O)[C@@H](NC(=O)[C@H](CC(=O)O)NC(=O)[C@H](CC(=O)O)NC(=O)CCCCCNC(=O)c1ccc2c(c1)C(=O)OC21c2ccc(O)cc2Oc2cc(O)ccc21)[C@@H](C)O)C(=O)N[C@@H](CCC(=O)O)C(=O)N[C@@H](CCC(=O)O)C(=O)N[C@H](C(=O)N[C@@H](CC(=O)O)C(=O)O)C(C)C,"FKBP4 (Homo sapiens, UniProt Q02790)","binding, FP",,pH 7.4,,Kd,> 25 µM
CC1=CC(Oc2c(F)cc3c(C)cc(=O)oc3c2F)OC1=O (racemic),RMS3,"binding, fluorescence",,,,Kd,74.1 µM
